# Measurements pooled from the literature.
# Every numbered part comes from another study and shows a few of its results, in no order.

# Series 1 — technique: RNA Bind-n-Seq; form: RNA; medium: in vitro; tested at: 200 nM; setting: whole 134-nt RNA, ends assumed; with: 150 mM LiCl; baseline: input library; reading: higher = stronger binding; all molecules: 7-deaza-guanosine replaces G
# Target: Fragile X messenger ribonucleoprotein 1, C-terminal low-complexity region (Fmr1, Mus musculus, UniProt P35922)
# Constant ends, left off below: GGGAGUUCUACAGUCCGACGAUC … UGGAAUUCUCGGGUGUCAAGG
Oligonucleotide,log2 enrichment
AAGUCCUGUGCUACACAUCGUAUGUACCGAAUCGGUUUUUGGUUUUUGGUUUUUGGAAAGUAUUAUGUUACGCCGUUCGGAUCUGCACUU,-2.09
GUCCUGUGCUACACAUCGUAUGUACCGAAUCGGAAAAAGGGGAAAAAGGGAAAAAGGGAAAGUAUUAUGUUACGCCGUUCGGAUCUGCAC,0.258
UCCUGUGCUACACAUCGUAUGUACCGAAUCGGGUUUUUUUGGGAAAAAGGGUUUUUGGGAAAGUAUUAUGUUACGCCGUUCGGAUCUGCA,-2.52
CACAGACAACACGCACCCACACGGACACAGAGGGAAGGGGUUGGGAUGGGGACAGGGUGCACAGCAGGGCGGGGUAGGACCCCAGCCCCU,0.813
CCUGUGCUACACAUCGUAUGUACCGAAUCGGGGAGGGGAAAAAAAGGGGAAAAAAAGGGGAAAGUAUUAUGUUACGCCGUUCGGAUCUGC,0.786
AAGUCCUGUGCUACACAUCGUAUGUACCGAAUCAAACCCAAACCCAAAUUUUUAAAAAAGUAUUAUGUUACGCCGUUCGGAUCUGCACUU,0.551
UGGGAGGUGGAUUUUGUUUAUUUUUUUAGCUCAUUUCCAGGGGUGGGAAUUUUUUUGUAAUAUGUGUCAUGAAUAAAGUUGUUUUUGAAA,0.0884
CACAGACAACACGAAACCACACAGACACAGAGGGAAGGGGUUGGGAUGGGGACAGGGUGCACAGCAGGGCGGGGUAGGACCCCAGCCCCU,1.05

# Series 2 — technique: protein binding microarray; form: double-stranded DNA, one strand shown; medium: in vitro; tested at: not given; baseline: not given; reading: higher = stronger binding
# Target: Histone acetyltransferase KAT6A, both winged helices, GST fusion (KAT6A, Homo sapiens, UniProt Q92794, residues 1-181)
# Setting: 8-mer, flanks averaged, mean of 2 arrays, mostly near background
# Residues (chain): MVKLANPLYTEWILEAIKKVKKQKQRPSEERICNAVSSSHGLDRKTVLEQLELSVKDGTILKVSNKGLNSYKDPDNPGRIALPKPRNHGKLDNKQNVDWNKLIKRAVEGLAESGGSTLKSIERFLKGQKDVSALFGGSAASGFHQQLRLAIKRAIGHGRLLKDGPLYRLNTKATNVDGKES
Oligonucleotide,E-score
GACAATAA,0.0067
CAGTAAGC,-0.107
ACTCGAAT,-0.2
ATTAATGA,-0.0604
GCCACGAA,-0.0686
ATGTATAC,-0.0717

# Series 3 — technique: protein-binding microarray; form: double-stranded DNA, one strand shown; medium: in vitro; tested at: 250 nM; setting: 60-bp whole probe; with: salmon DNA 0.4 mg/ml; baseline: random background probes; reading: higher = stronger binding; constant ends, left off below: GCCTAGCAC … GTCTTGATTCGCTTGACGCTGCTG
# Target: Interferon regulatory factor 7, full length, phosphomimetic (IRF7, Homo sapiens, UniProt Q92985, residues 1-503, S101K/S471D/S472D/S475D/S476D/S477D/S483D/S484D/S487D)
# Sequence of UniProt Q92985 (whole entry, unmodified, looked up): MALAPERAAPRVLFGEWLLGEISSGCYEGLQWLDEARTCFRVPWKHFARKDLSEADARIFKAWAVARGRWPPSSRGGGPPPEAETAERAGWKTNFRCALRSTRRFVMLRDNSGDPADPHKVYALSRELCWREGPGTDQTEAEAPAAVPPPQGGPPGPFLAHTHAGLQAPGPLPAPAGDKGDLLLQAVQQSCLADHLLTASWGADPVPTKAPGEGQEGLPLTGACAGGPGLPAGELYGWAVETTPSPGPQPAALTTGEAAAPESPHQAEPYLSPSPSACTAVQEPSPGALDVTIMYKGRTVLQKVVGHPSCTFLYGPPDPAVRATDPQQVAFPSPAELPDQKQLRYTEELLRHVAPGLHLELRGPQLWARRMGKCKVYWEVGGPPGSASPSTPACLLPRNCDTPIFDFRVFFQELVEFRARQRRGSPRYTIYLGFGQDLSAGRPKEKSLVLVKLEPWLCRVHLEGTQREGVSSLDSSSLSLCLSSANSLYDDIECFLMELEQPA
Oligonucleotide,log fluorescence [z-score]
CTAGTTGTGATTCTTTCGATGTGCTAG,1.6
AGAGCTCTGGCACCTCTAGACGTGCTA,-0.883
TTAGGTTCCGACTTTCGGTTAGTGCTA,3.4
AGATGAAAAGTGAAGCCTAGGTGCTAG,-0.649
GACGGAATCGACACTGGGGACGTGCTA,-0.687
TTAGGATTGGGGACTGGGTTAGTGCTA,-0.296
GACGGTCTCGGTTTGGGGACGTGCTAG,7.11
TTCCCTTTTAAGTTCTCTGAGTGCTAG,3.11
CTAGATTTCGGGTATCGATTAGTGCTA,2.35

# Further values, each from its own experiment
Substance,target,test,system,setting,scale,quantity,value
"PhoQ, residues 284 288 289 292 302 303 TTCLQL","PhoP, residues 12 14 15 18 19 NQGLL (Escherichia coli, UniProt P23836)","Sort-seq, measured: YFP reporter",E. coli,"PhoQ-PhoP variant library, with: 10 µM Mg2+","baseline: high Mg2+ state, higher = stronger signaling",fold induction,2.03
